Measured values from different studies.
Numbered parts are unrelated; each lists some results of a single study. Changes are numbered by the printed parent chain.

Set 1 — target: CCND3, cyclin fold, Cln2 fusion (human); technique: yeast growth competition, sequencing; matrix: yeast; notes: weak parent motif; relative to: not given; reading: higher = stronger binding
Starting sequence: RP1L1 docking peptide (human); TLGLGPLSFTLED
Variant	normalised enrichment score
TLGLGALSFTLED [P6A]	-0.516
TLGLGPLSFTAED [L11A]	-0.254
TLGLGPLSATLED [F9A]	-0.142
TLGLGPLSFALED [T10A]	-0.0793
TLGLGPLSFTLEA [D13A]	-0.442
TAGLGPLSFTLED [L2A]	-0.423

Set 2 — technique: protein-binding microarray; molecule type: double-stranded DNA, one strand shown; matrix: in vitro; tested at: 0.8 µM; notes: whole 60-bp probe, no competitor; reading: higher = stronger binding; all sequences stand within: … GTCTTGATTCGCTTGACGCTGCTG
Target: Centromere-binding protein 1, full length, N-terminal tag (CBF1, Saccharomyces cerevisiae, UniProt P17106, residues 1-351)
UniProt P17106, sequence (whole entry, looked up): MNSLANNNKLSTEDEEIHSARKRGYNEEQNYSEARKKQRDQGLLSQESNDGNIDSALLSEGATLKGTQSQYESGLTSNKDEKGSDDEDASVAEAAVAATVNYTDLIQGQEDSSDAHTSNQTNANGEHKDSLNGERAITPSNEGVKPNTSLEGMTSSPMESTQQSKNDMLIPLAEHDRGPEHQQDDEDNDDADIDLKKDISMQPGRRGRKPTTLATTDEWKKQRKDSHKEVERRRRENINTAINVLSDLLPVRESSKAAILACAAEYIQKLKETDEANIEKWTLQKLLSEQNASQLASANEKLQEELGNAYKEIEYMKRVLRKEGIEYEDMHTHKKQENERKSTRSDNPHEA
Oligonucleotide	fluorescence intensity [a.u.]
GAACAAGATAATGGTGACGAAAATATTATGCAATAG	544
GAATACTGCGGTATTGAGCTGATGGAAATATAATAG	523
GAACTGACACTGCCGCACGCTGCATTATGTGCCTAG	542
CTAACCTTTGCATGTCACGTGAACCAACAGAACTTC	22700
GAAATAAGCTCACGTGGTGTGGTATATCTTATTTAG	8950
GAAACAGTAAAAAGTCATGTGTTTTTGATTATTTAG	1640
CTATAGAGCTACTATCACATGTTGAACCTTGAATTC	1120
GAACTTGACGCGTCTCCGCTGACGCGCCTATATTAG	487
GAAGGTTATCCATGCCTCGTGTTGCTGCCAAGATAG	608
GAAGAGGATTATTGTCATGTGAAGGCGTGATAGTAG	1260
CCTAACTACTATAATTAGCACGTATAGCTTCGTACA	532
TGTACGAAGCTATCACATGTGATTATAGTAGTTAGG	3370
GAATTTCTATAGAAGCACGTATATATCTTTAATTAG	485
CTATACAGCAGCAATCACGACTCTACATGCCATTTC	595
CTAATATTCTGATTTCTCGTGATCGAATCTGTTTTC	945
CTATTTTGCGATGCGATGGTGATGAAAAAAAAATTC	568
GAATGTTGACGACATCACGGTCTCTGTTAACCCTAG	576

Set 3 — technique: DHFR PCA, deep sequencing; matrix: yeast; together with: (+)-ABA 17 µM; relative to: wild-type fitted maximum; reading: higher = stronger binding
Target: ABI1, truncated, D143A, DHFR fusion (Arabidopsis thaliana)
Notes: methotrexate growth selection, single substitutions
Starting sequence: PYL1, truncated, DHFR fusion (Arabidopsis thaliana); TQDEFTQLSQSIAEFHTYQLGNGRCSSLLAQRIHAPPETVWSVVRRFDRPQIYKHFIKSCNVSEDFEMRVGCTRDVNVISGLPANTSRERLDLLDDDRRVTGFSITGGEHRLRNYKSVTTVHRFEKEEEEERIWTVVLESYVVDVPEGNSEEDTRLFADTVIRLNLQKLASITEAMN
Variant	relative binding score [%]
T39I	85.1
F47A	-5.13
G102V	5.86
A158I	103
M68H	65.3
Y141H	16.2
D92F	6.85
S11C	82.3
T135W	0.508
K126F	80.2
S104K	8.12
R98N	81.3
A84Q	4.28
L138W	6.57

Set 4 — technique: RNA Bind-n-Seq; molecule type: RNA; matrix: in vitro; tested at: 200 nM; notes: whole 134-nt RNA, ends assumed; together with: 150 mM LiCl; relative to: input library; reading: higher = stronger binding; each molecule: 7-deaza-guanosine replaces G
Target: Ras GTPase-activating protein-binding protein 1, full length (G3BP1, Homo sapiens, UniProt Q13283)
UniProt Q13283, sequence (whole entry, looked up): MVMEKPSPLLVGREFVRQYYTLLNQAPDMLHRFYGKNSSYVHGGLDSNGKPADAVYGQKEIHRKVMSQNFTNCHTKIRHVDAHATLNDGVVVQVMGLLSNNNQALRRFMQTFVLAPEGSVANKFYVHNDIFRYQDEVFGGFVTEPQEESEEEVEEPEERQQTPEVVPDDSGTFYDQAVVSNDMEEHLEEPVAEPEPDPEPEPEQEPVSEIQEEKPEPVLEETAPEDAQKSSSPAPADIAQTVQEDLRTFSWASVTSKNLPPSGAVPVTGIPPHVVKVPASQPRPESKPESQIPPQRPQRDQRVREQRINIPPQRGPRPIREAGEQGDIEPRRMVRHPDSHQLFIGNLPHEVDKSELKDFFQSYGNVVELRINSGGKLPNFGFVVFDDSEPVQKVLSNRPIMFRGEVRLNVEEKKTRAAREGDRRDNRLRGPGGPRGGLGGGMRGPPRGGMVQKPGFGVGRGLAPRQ
All sequences stand within: GGGAGUUCUACAGUCCGACGAUC … UGGAAUUCUCGGGUGUCAAGG
Oligonucleotide	log2 enrichment
AGUCCUGUGCUACACAUCGUAUGUACCGAAUCGGAAAAAAAGGAAAAAAAGGUUUGGAAAGUAUUAUGUUACGCCGUUCGGAUCUGCACU	-3.42
UCCUGUGCUACACAUCGUAUGUACCGAAUCGGGUUUUUUGGUUUUUUGGGGUUUUUUGGAAAGUAUUAUGUUACGCCGUUCGGAUCUGCA	0.483
CCUGUGCUACACAUCGUAUGUACCGAAUCGGAAAAAAAGGAAAAAAAGGGGAAAAAAAGGAAAGUAUUAUGUUACGCCGUUCGGAUCUGC	-0.429
UCAAGUCCUGUGCUACACAUCGUAUGUACCGAAUCGGGUUUGGGAAAGGGUGGGAAAGUAUUAUGUUACGCCGUUCGGAUCUGCACUUCC	-0.953
UGGGAGGUGGAUUUUGUUUAUUUUUUUAGCUCAUUUCCAGGGGUGGGAAUUUUUUUUUAAUAUGUGUCAUGAAUAAAGCUGUUUUUGAAA	-0.177
GCAUGAAGUAAAAACAAAUGGAAAUGCUUCGGAUAGUGGCAGGGGUGGGGGUUGCUAAGGAAAGGGUGGGAUGGGAGUGGGUAAAGAGUU	0.175
UGGGAGGUGGAUUUUGUUUAUUUUUUUAGUUCAUUUCCAGGGGUGGGAAUUUUUUUUUAAUAUGUGUCAUGAAUAAAGUUGUUUUUGAAA	-1.11

Set 5 — technique: RNA Bind-n-Seq; molecule type: RNA; matrix: in vitro; tested at: 365 nM; relative to: no-protein control; reading: higher = stronger binding
Target: RNA binding protein fox-1 homolog 2, RRM domain, GST-SBP tag (RBFOX2, Homo sapiens, UniProt O43251-10, residues 100-194)
Notes: natural RNA segment, single round, ends assumed
All sequences stand within: GGGAGUUCUACAGUCCGACGAUC … UGGAAUUCUCGGGUGCCAA
Target sequence (chain): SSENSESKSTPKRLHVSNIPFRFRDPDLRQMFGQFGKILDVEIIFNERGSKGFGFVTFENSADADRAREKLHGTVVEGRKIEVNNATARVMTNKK
Oligonucleotide	RBNS enrichment (R)
GAUUGUAUUUCCAAUUUCUUGUUCAUGUAAGAUUUCAAUAAAACUCAAAAAUCUAUUCAAAACAUCACCUAUUUCAAAUUCAAUUGUGUCUAAAACAUUACUUUAUUCGU	0.448
CAGCAGUUUUGUGGUCUGCUAAUUGUGUGCUGCACACACAGCUGCCUGCUCUAGGGCCUGCCCAGCCCUGAGGGAGGCUAGUCAGCGCCUCCCUACUGCGCCCCUGUAGG	0.382
UCUGUGAUAGCUGUAGUUUCUUUCAUAGAAAGUAGCUAAUCCAGUGUAAUCUUUUACCUUUUUAAAAACCAAGAUAGAGUAUCUAUUAGAGUUUUACAUUGUUGAUGAUA	0.357
GGCUCGGCGUGGAUGGCAGCCUCAGGACACACACCCCUGCCUCAAGGUGCUGAGCCCCCGCCUUGCACUGCGCCUGCCCCACGGUGUCCCCGCCGGGAAGCAGCCCCGGC	0.92
GGCAGUGCCCACCAUGCACCCCUGAUGUUCGCCGUCUGGCGAGCCCUUAGCCUUGCUGUAGAGACUUCCGUCACCCUUGGUAGAGUUUAUUUUUUUGAUGGCUAAGAUAC	0.721
CAGGAGAGGAGUAGGUAAUGUUGGCCUUCAGUGGUAGCAGUCUUCUGGGGCAGGGGUCAGCCACUGUCCCAAUCAGUCCUUUCUGAAGGAGAAACCCAUUCCACAUUAAC	0.302
UGUCGAGGUUUGCAAAGACUGACUUCAAACUACUGUACGUUUUUUUCAAGUGCUAAAAAAAAAAUUAAACCAAGCAGCUUAACCAUGGUUUUGAUUAUUCCUCUAAGAUG	0.603
AGCUGAGGUCUAGGUCUUCUUAAAGGUCAAGUCUGCUCUCCCUCGCCUAAAGUGCAGCAGCAGCUCCUCUCAAGCUCACUCUCUAGGUCUCCAGGGUAGGAGUGUUUUUC	0.329
CACACAAGGAGCUGGAGAGAUGGCUCAGUGGUUACGAGCACUGACUGCUCUUCUAGAGAUCCUGAGUUCAAUUCCCAGCAACCGCAUGGUGGCUCACAACCAUCUGUAAU	0.343
CUUUAAUAACUAGCUGGGGAAAAGAUUAUGUAAUUACUUGGGGCUCUGCAGGACCUUCUCUGUCCAGCGCCCCCUUUCUGUUGUGCGAUUAGUUGUAGCUGCCAUGCUCA	0.378
ACACACUUCCAGUCUAGAUGAUGCUUUGUGUGAUACAUUAAGUUCUUAUUUUGGAUUAAAAGAAGUUUUCCAUUUGAUACCUCUCUAAAUUAAAUAAAUUAUAGAAUGUA	0.574
CAUCCUGGCGAUUAUCAACAACAUGCAGCAGUGUGGCGCCAGGCUCUGCAGGGUGGGCCUGAUCCCAGAGUGGUGCUUACUGUGCUGACUGUGUACUUAUCUUCCCCAAG	0.446
